# Measurements from different studies.
# A part holds a random share of what one study measured.

# Series 1
# Target: RNA binding protein fox-1 homolog 2, RRM domain, GST-SBP tag (RBFOX2, Homo sapiens, UniProt O43251-10, residues 100-194)
# Technique: RNA Bind-n-Seq
# Form: RNA
# Sample: in vitro
# Tested at: 365 nM
# Notes: natural RNA segment, single round, ends assumed
# Reference: no-protein control
# Direction: higher = stronger binding
# Target sequence (chain): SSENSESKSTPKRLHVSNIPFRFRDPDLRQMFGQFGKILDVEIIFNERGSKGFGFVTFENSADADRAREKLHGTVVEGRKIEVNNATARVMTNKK
Sequence,RBNS enrichment (R)
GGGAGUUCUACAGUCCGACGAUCUUAAAUCAUGUGAUUUAUAGUUUUUAAGUUGGCAUAAUUCAACUUAUGGUAUAACUGGGUCCCUCAACAGUAACCUGGGCUAAAAUAGGUCUUAUGUGGUUCAACUCCCAUGGAAUUCUCGGGUGCCAA,0.279
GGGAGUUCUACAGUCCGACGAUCAGACCAGACUCUUGCUUCUGAUCUUCCUUCAGCCCUCAGUGUGGGAAUAAAUUAAGUUUCUCAACAUACACAUUUUAGCUGGUCAAUGACUAAAACAUUUUUUCAGUGGAUGGAAUUCUCGGGUGCCAA,0.283
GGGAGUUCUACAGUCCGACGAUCUAGUAGAUGUUCUACUUUGUUCUGCUGUUCUCUAGAAAGAAUAUUUGGUUUUCCUGUAUAGGAAUGAGAUUAAUUCCUUUCCAGGUAUUUUAUAAUUCUGGGAAGCAAAAUGGAAUUCUCGGGUGCCAA,0.291
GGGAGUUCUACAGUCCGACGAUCGGGGAAUGGGGGCCCCAGGACAGCAUCAGGACUUUUGAGUCCAGCUGCCAGCAAUGGUUCCAACUCGGAGGCAGCGCCUCUUGGUCCCCAUUUCUGUAUAGCAGGCGUGUUGGAAUUCUCGGGUGCCAA,0.409
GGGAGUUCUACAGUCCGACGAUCCCAUGCCCUCCAAAUGCUAGAGACCUGGGCCCUGAACCCUGUAGACAGAUGCCCUCAGAAUUGGGGCAUGGGAGGGGGGCUGGGGGACCCCAUGAUUCAGCCACGGACUCUGGAAUUCUCGGGUGCCAA,1.08
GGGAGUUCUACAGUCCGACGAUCAAAGACCUCUCGCCUCUACGUGGCACCUGGAAUUGGGGCGCACAGGGAGGGGCCGAUGCUGCCACCACCCAGCCUUCUCUUUAUUUUCAGUGCUUUUUGUUUGGCCUCCCUGGAAUUCUCGGGUGCCAA,0.216
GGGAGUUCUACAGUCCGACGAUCUCUGGGAAGGCCUUGCCCCCACGGGCUUUACCCUUUCCUGUGGGCUCUCUCCCUGACACAUUUGUUAAAAAUCAAACCUGAAUAAAACUACAAGUUUAAUAUGAAGCCCCUGGAAUUCUCGGGUGCCAA,0.745
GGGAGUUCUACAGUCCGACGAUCCUGGUGAUGUCCCAGUGUCUCAGAACUGAUCACUUGCUCCUCCUAUUGUGUGAACCACUCUUAGCAGGCAUUGCUACUGGAUUCUUAACUAGAGAAAACUUACAGAACAGUGGAAUUCUCGGGUGCCAA,0.377
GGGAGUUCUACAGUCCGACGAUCAAAUUAUGGAGGUUCCUUAGUGCUCAAUAAUAUAAGACCUGGUGUUAUUAGAACGAGUCUUUCUUAUAAACUAACAGAGCAGGUAUAUGCCUGUUAGACCUUAGCUGUGGUGGAAUUCUCGGGUGCCAA,0.799

# Series 2
# Target: Ras GTPase-activating protein-binding protein 1, RRM domain (G3BP1, Homo sapiens, UniProt Q13283)
# Chain of UniProt Q13283 (whole entry, looked up): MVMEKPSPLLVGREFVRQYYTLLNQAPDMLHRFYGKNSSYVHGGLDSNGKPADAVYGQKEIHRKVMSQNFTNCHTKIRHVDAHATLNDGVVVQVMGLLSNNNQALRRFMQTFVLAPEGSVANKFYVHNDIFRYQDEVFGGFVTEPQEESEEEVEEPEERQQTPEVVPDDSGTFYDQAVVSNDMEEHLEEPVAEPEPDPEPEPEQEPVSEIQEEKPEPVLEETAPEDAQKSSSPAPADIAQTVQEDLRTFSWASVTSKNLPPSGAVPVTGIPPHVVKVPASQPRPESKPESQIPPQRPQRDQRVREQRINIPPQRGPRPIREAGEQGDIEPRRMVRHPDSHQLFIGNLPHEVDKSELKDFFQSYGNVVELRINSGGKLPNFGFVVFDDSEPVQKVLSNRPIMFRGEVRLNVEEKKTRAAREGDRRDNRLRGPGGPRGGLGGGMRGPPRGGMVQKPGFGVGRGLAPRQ
# Technique: RNA Bind-n-Seq
# Form: RNA
# Sample: in vitro
# Tested at: 1 µM
# Notes: whole 134-nt RNA, ends assumed
# With: 150 mM KCl
# Reference: input library
# Direction: higher = stronger binding
Sequence,log2 enrichment
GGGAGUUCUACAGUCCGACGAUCGCAGGAAGUAAAAACAAAUGGAAAUGCUUCGGAUAGUGGCAGGGGUGGGGGUUGCUAAGGAAAGGGGGGGAUGGGAGUGGGUAAAGAGUUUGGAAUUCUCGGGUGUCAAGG,1.58
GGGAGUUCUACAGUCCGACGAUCCAAGUCCUGUGCUACACAUCGUAUGUACCGAAUCGGUUUUGGUUUUGGGUUUUGGAAAGUAUUAUGUUACGCCGUUCGGAUCUGCACUUCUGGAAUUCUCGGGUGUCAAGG,-0.264
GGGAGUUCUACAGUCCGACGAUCACCAUGCAGGUGGGUAUCUUUGGGAAGUGGGGCAAGGGGGGGAUAGGGAGGGGGGUAACACUUUGGGAACAGGUGGUCCCAGGUCGUUUCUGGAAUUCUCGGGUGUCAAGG,-0.498
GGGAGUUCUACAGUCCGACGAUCAGUCCUGUGCUACACAUCGUAUGUACCGAAUCGGGGUUUUGGGUUUUGGGUUUUGGGAAAGUAUUAUGUUACGCCGUUCGGAUCUGCACUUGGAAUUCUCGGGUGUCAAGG,0.468
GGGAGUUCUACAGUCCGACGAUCUGGGAGGUGGAUUUUGUUUAUUUUUUUAGCUCAUUUCCUGGGGUGGGAAUUUUUUUUUAAUAUGUGUCAUGAAUAAAGUUGUUUUUGAAAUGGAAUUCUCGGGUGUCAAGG,1.79
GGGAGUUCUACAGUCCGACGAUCUAUUCCAAUGUCUGUGGGAAUAAUUGACACAAGGACGAAUCCAAGCCAGUUAAAUGCGGUUGAAUUUCUGUGGGACCCAGCAAAACGCACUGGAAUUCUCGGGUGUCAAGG,0.216
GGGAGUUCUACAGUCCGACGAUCUGGCCCUGGUGGCAUGCGGGGAGGAAGAGGUGGCCACAUGGAUCGUGGUGGUCCCGGUGGAAUGUUCAGAGGUGGCCGUGGUGGAGACAGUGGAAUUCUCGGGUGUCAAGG,0.991
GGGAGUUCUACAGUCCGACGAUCAGUCCUGUGCUACACAUCGUAUGUACCGAAUCGGGGAAAGGGGAAAGGGGAAAGGGGAAAGUAUUAUGUUACGCCGUUCGGAUCUGCACUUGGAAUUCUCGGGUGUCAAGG,1.78
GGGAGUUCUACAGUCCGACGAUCGCAGGAAGUAACAACAAAUGGAAAUGCUUCGGAUAGUGGCAGGGGUGGGGGUUGCUAAGGAAAGGGUGGGAUGGGAGUGGGUAAAGAGUUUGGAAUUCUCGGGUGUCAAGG,1.39
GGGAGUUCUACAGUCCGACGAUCGCAGGAAGUAAAAACAAAUGGAAAUGCUUCGGAUAGUGGCAGGGGUGGGUGUUGCUAAGGAAAGGGUGGGAUGGGAGUGGGUAAAGAGUUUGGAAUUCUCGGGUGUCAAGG,1.21

# Series 3
# Target: Phosphate system positive regulatory protein PHO4, full length, GST-tagged (PHO4, Saccharomyces cerevisiae, UniProt P07270, residues 1-312)
# Technique: competition protein-binding microarray
# Form: double-stranded DNA, one strand shown
# Sample: in vitro
# Tested at: 2 µM
# Notes: whole 60-bp probe, lowest competitor level
# With: Cbf1 competitor, 0.05 µM
# Direction: higher = stronger binding
# Residues (chain): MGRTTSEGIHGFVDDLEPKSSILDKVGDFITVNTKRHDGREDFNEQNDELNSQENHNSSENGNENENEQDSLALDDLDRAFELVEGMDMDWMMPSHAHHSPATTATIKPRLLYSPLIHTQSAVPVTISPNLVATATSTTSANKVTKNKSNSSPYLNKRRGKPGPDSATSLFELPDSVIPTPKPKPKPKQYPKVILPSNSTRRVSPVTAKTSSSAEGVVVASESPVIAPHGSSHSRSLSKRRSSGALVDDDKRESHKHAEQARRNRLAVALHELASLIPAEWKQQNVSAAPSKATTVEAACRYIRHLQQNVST
Sequence,fluorescence intensity
GGAAGGTGGCACCATCACCTGGGGAAATTCTGTCAAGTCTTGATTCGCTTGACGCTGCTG,3670 a.u.
TTCCAGGACATTCACCATGTGCTTTTTTCCATAACAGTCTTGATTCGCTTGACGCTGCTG,10500 a.u.
CGATTTCAGAATCACCACGGGATTGCCAACCCAACAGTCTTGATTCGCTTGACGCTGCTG,6680 a.u.
ATTTCATTATCCTGCCCCGTGGCAAGTATTTCTGTGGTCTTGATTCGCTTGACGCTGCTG,11100 a.u.
AGGGTGGTATGGATACACGGGAAGCTTGGGTGCTGCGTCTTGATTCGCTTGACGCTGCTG,5560 a.u.
ATTCCTTTCCTGTAACTCGTGCTTTGAGAAAAGTACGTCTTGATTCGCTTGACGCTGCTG,12100 a.u.
AAATTACTAAGTTGTACCGTGGGTGACGCCGTATGAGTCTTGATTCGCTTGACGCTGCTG,5910 a.u.
TAAGGAAGGATATGGCACACGCTTGTGTTCAAGAATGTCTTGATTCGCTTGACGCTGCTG,8680 a.u.
AAATTACTAAGTTACCACGTGTTTTACCCCGTATGAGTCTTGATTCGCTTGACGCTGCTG,20000 a.u.
AAATTACTAAGTTTTCACGTGCAGTACCCCGTATGAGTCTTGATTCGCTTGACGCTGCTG,11600 a.u.
CGTCCTAGTGATTGCATTGTGGGTGCCATGAGGAAGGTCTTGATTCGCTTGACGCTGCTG,7780 a.u.
AAAGCGGTAATTTGGTGTGTGGGTGCAGATATCTATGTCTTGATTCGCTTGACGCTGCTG,5780 a.u.
ACAAATCAAGAATCGCACGTGAAAATATCAAGCGCGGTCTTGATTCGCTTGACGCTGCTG,14900 a.u.
CGTCCTAGTGATTTTCACGTGGCGTCCATGAGGAAGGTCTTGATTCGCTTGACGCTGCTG,14900 a.u.
GTTCGCATCGTCCGTCACAGCAGCACCAAACACAGGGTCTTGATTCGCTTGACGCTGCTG,5410 a.u.
TCCCATGCAAACAAGCATGTGATATCATTGCCAAGTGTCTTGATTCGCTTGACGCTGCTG,10500 a.u.
GAACTACGCTACTACGTCGTGGGTATTCTGGAGAAGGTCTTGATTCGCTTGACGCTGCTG,7280 a.u.
TGCGCAACAACTTGGCTGGTGGGTGTATGTCTAGAAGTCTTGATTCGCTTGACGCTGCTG,4620 a.u.
ACTTTTTCCACTACTCTCGTGGCCGGGAAGACCTGCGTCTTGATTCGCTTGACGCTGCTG,10500 a.u.
AAGGGCAAAAAAGCTCACATGACAAGCTTGTTTTGGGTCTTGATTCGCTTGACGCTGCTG,5430 a.u.
AATCATTTAGTCCATCACGTCAACCTGTCTAAAATAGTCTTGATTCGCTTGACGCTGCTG,4270 a.u.
CTTTTCCTTGTTATCCTCGTGTGTTAAATAGATAATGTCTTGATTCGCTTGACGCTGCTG,11400 a.u.
CTAACGAAGGTTTGTTCGGTGGGTGACAAGCCAAGTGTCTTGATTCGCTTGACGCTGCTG,3360 a.u.
GAAAAAAGAAATGGACACGTGTAGGTCAAGGCATTAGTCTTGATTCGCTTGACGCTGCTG,15600 a.u.

# Series 4
# Target: Histone acetyltransferase KAT6A, both winged helices, GST fusion (KAT6A, Homo sapiens, UniProt Q92794, residues 1-181)
# Technique: protein binding microarray
# Form: double-stranded DNA, one strand shown
# Sample: in vitro
# Tested at: not given
# Notes: 8-mer, flanks averaged, mean of 2 arrays, mostly near background
# Reference: not given
# Direction: higher = stronger binding
# Residues (chain): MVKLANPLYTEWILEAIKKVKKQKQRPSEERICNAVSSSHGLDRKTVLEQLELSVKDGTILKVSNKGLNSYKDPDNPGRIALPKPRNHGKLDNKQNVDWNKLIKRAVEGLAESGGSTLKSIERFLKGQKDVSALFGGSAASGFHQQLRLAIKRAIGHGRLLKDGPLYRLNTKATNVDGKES
Sequence,E-score
ACCTTGGA,-0.155
GTCCTTCA,0.029
CGCGTACG,0.358
CAGGCCCG,0.176
GGTGAAAC,0.0732
GAGAGTAA,-0.162
TAAGCAGA,-0.104
AGCGGTGC,0.112
GTGACTCA,-0.0209
AGAGACCG,0.0654
CGTTGCGC,0.324
CGAGTCCC,-0.0128
GTGTTTTA,0.161
GTCTCAGA,-0.125
AATGTACT,-0.0236
AGACGTCA,-0.0432
CCAACGAC,-0.00987
CCCCCCGA,0.0683
GAAATAAA,-0.00231
CGCACGGC,0.307
